Assay results gathered from unrelated publications.
Every numbered part comes from another study and shows a few of its results, in no order.

Set 1 — technique: universal PBM; form: double-stranded DNA, one strand shown; medium: in vitro; concentration: not given; direction: higher = stronger binding; endpoint: E-score
Target: Sal-like protein 4, full length isoform B (SALL4, Homo sapiens, UniProt Q9UJQ4-2, residues 1-616)
Notes: 8-mer, flanks averaged, mean of replicates
Strand = TACGAGCA; result = -0.023
Strand = GGCGTGGA; result = -0.242
Strand = AGACTCAA; result = -0.0133
Strand = AACATGGG; result = -0.0295
Strand = CCGTTAGC; result = -0.07

Set 2 — technique: aptamer microarray, sandwich; form: DNA with 2'F-ANA; medium: in vitro; concentration: 200 nM; with: Cy3 exosite-II aptamer, 400 nM; direction: higher = stronger binding; endpoint: mean fluorescence intensity; strand: GGTTGGTGTGGTTGG
Target: Prothrombin, mature alpha-thrombin (F2, Homo sapiens, UniProt P00734)
Notes: whole 15-mer aptamer, many near background
Modification = 2'F-ANA at 4 5 7 10 15; result = 57.1 a.u.
Modification = 2'F-ANA at 3 5 8 9 12 14; result = 61.1 a.u.
Modification = 2'F-ANA at 3 4 5 6 9 10 11 14 15; result = 55.2 a.u.
Modification = 2'F-ANA at 2 3 4 5 9 11 13 14 15; result = 50.7 a.u.
Modification = 2'F-ANA at 2 3 4 5 8 9 10 11 12; result = 55.6 a.u.
Modification = 2'F-ANA at 2 3 5 10 11 12 15; result = 61.6 a.u.

Set 3 — technique: protein-binding microarray; form: double-stranded DNA, one strand shown; medium: in vitro; concentration: 250 nM; notes: 60-bp whole probe; with: salmon DNA 0.4 mg/ml; reference: random background probes; direction: higher = stronger binding; endpoint: log fluorescence
Target: Interferon regulatory factor 5, full length, phosphomimetic (IRF5, Homo sapiens, UniProt Q13568-2, residues 1-514, K96S/S451D/S453D/S456D/S462D)
Strand = GCCTAGCACTCAGACATCTTCATCAAACTGTGCTAGGTCTTGATTCGCTTGACGCTGCTG; result = 0.286 z-score
Strand = GCCTAGCACGACGGTATCCTTTTCCTGAGGTGCTAGGTCTTGATTCGCTTGACGCTGCTG; result = 0.268 z-score
Strand = GCCTAGCACTTAGATAACGGGACTGGATTAGTGCTAGTCTTGATTCGCTTGACGCTGCTG; result = -0.000758 z-score
Strand = GCCTAGCACTCAAGTATTTATCTGCAACTGTGCTAGGTCTTGATTCGCTTGACGCTGCTG; result = 0.617 z-score

Single results of other studies
Molecule = PhoQ, residues 284 288 289 292 302 303 SVHLDV; target = PhoP, residues 12 14 15 18 19 TPLRH (Escherichia coli, UniProt P23836); assay = Sort-seq, measured: YFP reporter; system = E. coli; conditions = PhoQ-PhoP variant library, with: 10 µM Mg2+; scale = reference: high Mg2+ state, higher = stronger signaling; endpoint = fold induction; result = 0.787

Excerpt of the above (set 1):
Strand = TACGAGCA; result = -0.023
